Published values collected from several papers.
Protocols differ between the studies behind these lines. ± gives the spread as reported.

SMILES | species | medium | route | dose | time | notes | Cmax
CSCOC1C(=O)C2(C)C(OCSC)CC3OCC3(OC(C)=O)C2C(OC(=O)c2ccccc2)C2(O)CC(OC(=O)C(O)C(C=C(C)C)NC(=O)OC(C)(C)C)C(C)=C1C2(C)C (centres unmarked) | female Sprague-Dawley rat | plasma | intravenous | 4 mg/kg |  |  | 1390 ng/mL
N=C(N)NCCC[C@@H]1NC(=O)[C@H](Cc2c[nH]c3ccccc23)NC(=O)[C@@H](CC2CCCCC2)NC(=O)[C@@H]2CCCN2C(=O)[C@@H](NC(=O)CCc2ccccc2)CCCNC1=O | C57BL/6J mice | brain | oral | 1 mg/kg |  |  | 154 ng/g
C[Si](C)(C)C[C@H](CN)CC(=O)O | male Sprague-Dawley rat | plasma | oral | 100 mg/kg |  | single dose | 482 µM
CC1=C(/C=C/C(=O)N2CCN(C(N)=O)CC2)C(C)(C)CCC1 | male mice | plasma | oral | 20 mg/kg |  |  | 4.69 nmol/g
NC(=O)/C=C/c1cccc(S(=O)(=O)Nc2ccccc2)c1 | patients with normal liver function | plasma | intravenous | 400 mg/m^2 belinostat |  | single 30 min infusion, cycle 1 day -7, mean | 1260 ng/mL
CC(C)(C)ONc1nc(Nc2ccnc(C(F)(F)F)c2)nc(-c2cccc(C(F)(F)F)n2)n1 | female Balb/cA nude mice xenograft | tumour | oral | 18.05 mg/kg |  |  | 10100 ng/g
CC=C1C(OC2OC(CO)C(O)C(O)C2O)OC=C(C(=O)OC)C1CC(=O)OCC1OC(OCCc2ccc(O)cc2)C(O)C(O)C1O (centres unmarked) | pseudo-germfree mice | plasma | oral | 109.2 mg/kg |  |  | 2310 ng/mL
Cc1ccc(OCC(=O)N(Cc2cccs2)c2ccn[nH]2)cc1 | female Sprague-Dawley rat | plasma | oral | 30 mg/kg |  | single dose | 33.1 ng/mL
CCc1c2c(nc3ccc(O)cc13)-c1cc3c(c(=O)n1C2)COC(=O)[C@]3(O)CC | human patients | plasma | intravenous | 56 mg/m^2 of parent drug |  |  | 154 ng/mL
COc1cc(C)c(Cc2ccc(O)cc2)cc1[C@@H]1S[C@H](CO)[C@@H](O)[C@H](O)[C@H]1O | Japanese T2DM patients | plasma |  | 2.5 mg luseogliflozin | day 1 | once daily | 4.13 ± 0.554 ng/mL
C[Si]1(C[C@H](CN)CC(=O)O)CCCC1 | male Sprague-Dawley rat | plasma | oral | 100 mg/kg |  | single dose | 112 µM
CCCCCCc1ccc(Oc2ccccc2C#N)c(O)c1 | CD-1 mice | plasma | subcutaneous | dose not given |  |  | 790 ng/mL
CC(C)(Sc1ccncc1-c1ccc(C#N)c2ccccc12)C(=O)OC1OC(C(=O)O)C(O)C(O)C1O (centres unmarked) |  | plasma | oral | 15 mg |  | mild renal impairment, fasted | 33.3 ng/mL
Cn1c(=O)oc2ccc(-c3ccc(CC(C#N)NC(=O)C4CNCCCO4)c(F)c3)cc21 (centres unmarked) | human volunteers | plasma |  | 60 mg single dose |  | fasted, geometric mean | 435 ng/mL

A few entries again:
SMILES | species | medium | route | dose | time | notes | Cmax
Cn1c(=O)oc2ccc(-c3ccc(CC(C#N)NC(=O)C4CNCCCO4)c(F)c3)cc21 (centres unmarked) | human volunteers | plasma |  | 60 mg single dose |  | fasted, geometric mean | 435 ng/mL
Cc1ccc(OCC(=O)N(Cc2cccs2)c2ccn[nH]2)cc1 | female Sprague-Dawley rat | plasma | oral | 30 mg/kg |  | single dose | 33.1 ng/mL
